Assay results from different studies.
Each numbered part is a random draw from the data of one study; scales do not carry over between parts.

Study 1 — method: universal PBM; molecule type: double-stranded DNA, one strand shown; medium: in vitro; concentration: 600 nM; direction: higher = stronger binding; quantity: E-score
Target: Sal-like protein 4, full length isoform A (SALL4, Homo sapiens, UniProt Q9UJQ4, residues 1-1053)
Chain of UniProt Q9UJQ4 (whole entry, looked up): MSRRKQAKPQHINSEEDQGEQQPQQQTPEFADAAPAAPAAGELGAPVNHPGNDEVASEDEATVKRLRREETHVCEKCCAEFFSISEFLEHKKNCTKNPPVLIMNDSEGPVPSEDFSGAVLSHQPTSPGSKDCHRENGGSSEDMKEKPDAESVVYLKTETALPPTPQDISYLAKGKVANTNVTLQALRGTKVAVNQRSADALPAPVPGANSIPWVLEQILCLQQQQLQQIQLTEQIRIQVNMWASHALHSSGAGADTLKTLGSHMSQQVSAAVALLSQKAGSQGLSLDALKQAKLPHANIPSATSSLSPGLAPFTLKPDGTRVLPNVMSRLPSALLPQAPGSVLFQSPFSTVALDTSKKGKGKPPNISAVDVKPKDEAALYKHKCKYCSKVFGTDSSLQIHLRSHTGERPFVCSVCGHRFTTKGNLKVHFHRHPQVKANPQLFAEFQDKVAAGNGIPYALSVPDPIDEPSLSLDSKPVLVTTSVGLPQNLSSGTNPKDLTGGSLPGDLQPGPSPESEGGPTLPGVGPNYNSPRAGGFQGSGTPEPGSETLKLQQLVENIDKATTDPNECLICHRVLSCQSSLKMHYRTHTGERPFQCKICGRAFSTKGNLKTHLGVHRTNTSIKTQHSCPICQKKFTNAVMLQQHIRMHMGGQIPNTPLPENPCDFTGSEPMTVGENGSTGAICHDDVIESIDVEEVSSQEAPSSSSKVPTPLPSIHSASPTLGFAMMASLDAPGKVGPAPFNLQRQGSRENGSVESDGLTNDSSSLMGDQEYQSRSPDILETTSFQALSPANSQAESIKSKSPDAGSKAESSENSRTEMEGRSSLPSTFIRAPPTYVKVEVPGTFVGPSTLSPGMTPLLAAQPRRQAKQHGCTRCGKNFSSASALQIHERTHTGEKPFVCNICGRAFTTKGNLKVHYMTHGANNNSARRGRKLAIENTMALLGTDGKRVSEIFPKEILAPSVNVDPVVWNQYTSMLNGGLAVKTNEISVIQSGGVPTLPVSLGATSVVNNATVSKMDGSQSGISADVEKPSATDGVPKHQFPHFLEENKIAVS
Setting: 8-mer, flanks averaged, mean of replicates
GACCTGCA: -0.0113
TGGCCAAA: -0.0321
CCGGGTAG: -0.324
CAAAAGTG: 0.14

Study 2 — method: RNA Bind-n-Seq; molecule type: RNA; medium: in vitro; concentration: 200 nM; setting: whole 134-nt RNA, ends assumed; together with: 150 mM LiCl; relative to: input library; direction: higher = stronger binding; quantity: log2 enrichment; each molecule: 7-deaza-guanosine replaces G
Target: Fragile X messenger ribonucleoprotein 1, C-terminal low-complexity region (Fmr1, Mus musculus, UniProt P35922)
GGGAGUUCUACAGUCCGACGAUCCCUGUGCUACACAUCGUAUGUACCGAAUCGGGGUUUUUUGGUUUUUUGGGUUUUUUGGGGAAAGUAUUAUGUUACGCCGUUCGGAUCUGCUGGAAUUCUCGGGUGUCAAGG: -1.78
GGGAGUUCUACAGUCCGACGAUCGUCCUGUGCUACACAUCGUAUGUACCGAAUCGGGUUUUUUUGGGAAAAAAAGGGAGGGAAAGUAUUAUGUUACGCCGUUCGGAUCUGCACUGGAAUUCUCGGGUGUCAAGG: -1.97
GGGAGUUCUACAGUCCGACGAUCCUGUGCUACACAUCGUAUGUACCGAAUCGGGUUUUUUUGGGAAAAAAAGGGUUUUUUUGGGAAAGUAUUAUGUUACGCCGUUCGGAUCUGUGGAAUUCUCGGGUGUCAAGG: -2.53
GGGAGUUCUACAGUCCGACGAUCGCUGUGACCCCAACGCCGGUGCCCGUGGUCGGGAGCCAGAUGACCAGACAAGCCCGGCGCCUCUACGUGGGCAACAUCCCCUUUGGCAUCUGGAAUUCUCGGGUGUCAAGG: -0.135

Study 3 — method: protein-binding microarray; molecule type: double-stranded DNA, one strand shown; medium: in vitro; concentration: 2540 nM top; setting: 60-bp whole probe; together with: salmon DNA 0.4 mg/ml; relative to: random background probes; direction: higher = stronger binding; quantity: fitted relative affinity; shared flanks, not repeated: GCCTAGCAC … GTCTTGATTCGCTTGACGCTGCTG
Target: Interferon regulatory factor 3, full length, phosphomimetic (IRF3, Homo sapiens, UniProt Q14653, residues 1-427, S386D/S396D/S398D/S402D/T404D/S405D)
Target sequence (chain): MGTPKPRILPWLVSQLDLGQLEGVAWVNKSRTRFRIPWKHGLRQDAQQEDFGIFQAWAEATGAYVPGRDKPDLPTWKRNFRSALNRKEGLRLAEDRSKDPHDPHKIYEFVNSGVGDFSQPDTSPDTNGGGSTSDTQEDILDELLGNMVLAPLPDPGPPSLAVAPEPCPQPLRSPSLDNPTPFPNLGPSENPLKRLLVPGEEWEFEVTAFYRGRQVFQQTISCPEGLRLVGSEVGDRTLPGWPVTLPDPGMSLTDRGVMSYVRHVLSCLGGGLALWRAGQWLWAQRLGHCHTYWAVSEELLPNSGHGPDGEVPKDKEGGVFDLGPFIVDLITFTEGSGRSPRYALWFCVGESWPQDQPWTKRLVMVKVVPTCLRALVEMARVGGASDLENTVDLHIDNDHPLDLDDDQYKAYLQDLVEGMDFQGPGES
CATTGCCTATTTTTCACCTGGTGCTAG: 1.14 z-score
GACGGTATCGGGTCTGGGGACGTGCTA: 2.57 z-score
GACGTTTTCCTTTCCCTGACGTGCTAG: 6.64 z-score
CTAAAACTCTTTATTTAAGCGTGCTAG: 0.468 z-score
TTAGGCTTCGGTATCGGTTAGTGCTAG: 1.91 z-score

Further values, each from its own experiment
PhoQ, residues 284 288 289 292 302 303 NSMLDC
fold induction (PhoP, residues 12 14 15 18 19 LHTVM (Escherichia coli, UniProt P23836); Sort-seq, refers to: YFP reporter; E. coli; PhoQ-PhoP variant library, together with: 10 µM Mg2+; relative to: high Mg2+ state, higher = stronger signaling): 16.3

Some of these lines once more (study 3):
GACGGTATCGGGTCTGGGGACGTGCTA: 2.57 z-score
